Published values of several laboratories.
Each numbered part is a random draw from the data of one study; scales do not carry over between parts. Positions count from the first letter of the parent shown.
UniProt P16591, sequence (whole entry, looked up): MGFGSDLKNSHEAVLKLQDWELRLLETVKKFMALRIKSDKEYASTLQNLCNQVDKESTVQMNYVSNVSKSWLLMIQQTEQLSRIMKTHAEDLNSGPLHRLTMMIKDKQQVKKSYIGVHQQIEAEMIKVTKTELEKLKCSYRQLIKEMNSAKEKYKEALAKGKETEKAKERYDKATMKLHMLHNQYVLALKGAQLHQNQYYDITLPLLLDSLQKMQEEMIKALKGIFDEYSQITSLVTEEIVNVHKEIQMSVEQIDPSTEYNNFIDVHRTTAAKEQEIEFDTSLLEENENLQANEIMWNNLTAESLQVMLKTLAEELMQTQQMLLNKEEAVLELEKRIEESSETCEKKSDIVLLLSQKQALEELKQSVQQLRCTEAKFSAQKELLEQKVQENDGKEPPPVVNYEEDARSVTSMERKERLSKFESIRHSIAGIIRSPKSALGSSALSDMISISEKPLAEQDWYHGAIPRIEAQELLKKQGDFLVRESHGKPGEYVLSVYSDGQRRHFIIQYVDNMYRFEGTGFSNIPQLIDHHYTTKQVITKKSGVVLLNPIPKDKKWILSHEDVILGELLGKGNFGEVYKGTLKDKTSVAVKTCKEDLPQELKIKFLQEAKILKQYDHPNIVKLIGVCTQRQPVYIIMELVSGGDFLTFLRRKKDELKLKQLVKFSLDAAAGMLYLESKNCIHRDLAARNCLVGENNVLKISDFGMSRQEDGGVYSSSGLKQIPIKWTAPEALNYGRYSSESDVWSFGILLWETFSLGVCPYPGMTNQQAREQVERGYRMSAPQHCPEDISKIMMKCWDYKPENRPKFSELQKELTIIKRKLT

Study 1
Target: RING finger protein unkempt homolog, zinc fingers 1-6, SBP tag (UNK, Homo sapiens, UniProt Q9C0B0, residues 30-357)
UniProt Q9C0B0, sequence (30-357, looked up): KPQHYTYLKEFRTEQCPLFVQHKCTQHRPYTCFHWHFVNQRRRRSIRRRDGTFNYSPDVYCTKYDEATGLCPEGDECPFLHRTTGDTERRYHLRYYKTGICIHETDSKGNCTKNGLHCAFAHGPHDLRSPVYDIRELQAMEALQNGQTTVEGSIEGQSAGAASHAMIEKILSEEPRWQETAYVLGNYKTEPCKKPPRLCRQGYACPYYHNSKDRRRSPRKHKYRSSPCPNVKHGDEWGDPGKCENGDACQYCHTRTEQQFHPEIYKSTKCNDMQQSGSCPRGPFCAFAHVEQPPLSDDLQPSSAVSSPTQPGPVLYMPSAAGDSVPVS
Technique: RNA Bind-n-Seq
Molecule type: RNA
Matrix: in vitro
Tested at: 100 nM
Setting: RNA with constant flanks, vertebrate orthologous sites, ends assumed
Relative to: input RNA pool
Reading: higher = stronger binding
Oligonucleotide	bound/input enrichment
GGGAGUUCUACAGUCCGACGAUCAAGCCAUCUUUUCCACAUUUUCUGUAAAUAAUGGAUAAUCAUUUUAAAAAUUUUUAUUUUUAGUGCUGUUUUAACAAUGUAGAUAGAUCAUAAAUGUACUUGCUGAAUUCAAUCAUUUUUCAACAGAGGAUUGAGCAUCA	0.528 ratio
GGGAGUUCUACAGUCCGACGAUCCUUUAUGGGCCUCGCAGAGUUGAAAUAAUGGAAGAGGAAAGUGAUCAGUAAUCUUCAUUUUAGUAUUUAUGCUUAGGUGUGAAAUAAAUGUUCAUCGAUCAUUUCUAUAAUCCAGAGCUUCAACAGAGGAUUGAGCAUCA	0.318 ratio
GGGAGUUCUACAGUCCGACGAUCCUCCACCACCCCUGGGUGCCUGACUCCAGUGAAGCACUCACCAGUGCUGCAAGGGGUCCAGAGUAUUUUUUUUGCUGCUUCAGUCCCCAAUGCCUUCCAGCAGAAGUGGCAGUAGACUGUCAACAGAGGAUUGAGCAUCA	0.3 ratio
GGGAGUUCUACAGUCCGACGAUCAGUCUAGAAGGGGUAACCACUAACUUAUUUUAUAAGGAAAGGAAAUGCUGAAAAUCAUGUUAGUGCCAAGUGCAGUUGGAGAACAUAAGCCACUUUUAGGUAAUUCUCAAGUGGAAAUCCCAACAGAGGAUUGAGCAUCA	0.854 ratio
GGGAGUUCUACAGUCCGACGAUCGGGACGCUUUGAUAUUAAAUUCGACAUAAAAAGCAGCUGAUUGUAAGCACAACUCUCUCCUAGCCAUUUAAAAAGGUAAAAAACAAAAAAGAAAACCUACUAGUCUUGAACAAACUGUCACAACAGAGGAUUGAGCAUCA	1.25 ratio
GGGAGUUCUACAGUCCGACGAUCUUUGAGUUAGUUUUUCACAUUUUCUGUAAAUAAUGGAUAAUCUUUUUCAAGUUUACUUUUAAGUGCUGUUUUAACAAUGCGGACAGGCUAUAAAUGUACUUGCUGAAUUCAUUCAUUUUUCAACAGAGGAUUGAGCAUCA	0.485 ratio
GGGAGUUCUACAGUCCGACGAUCACCUAAAAUUAUAGCAAAAGACCAAGCAGUAGCAGUUGUUUUUGUAAAUGUAAAAAUAAUUAGAUGCAAACUGUUUCCUUCAGUUUUAAGAAUAAAAUACCUCAGAGCUAUGUUCACCAGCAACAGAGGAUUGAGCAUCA	0.632 ratio
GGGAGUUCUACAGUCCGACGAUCCCUCUAAACCCCAUUUCUUCUGUUUCAUAGUGUAGAAGUAUUCUUUUUCAGUUAUAUUAUUAGUGGACUUGUUAUAAUUUUAGGGAAAAUUUCAGUACAGAUGCUGUGAGCUUACAUGGACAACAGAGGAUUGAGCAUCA	1.28 ratio

Study 2
Target: CRIPT, C-terminal peptide
Technique: DHFR complementation, deep sequencing
Matrix: yeast
Setting: single substitutions, model-inferred values
Relative to: wild type
Reading: higher = weaker binding
Parent: ERBIN, PDZ domain 1 (human); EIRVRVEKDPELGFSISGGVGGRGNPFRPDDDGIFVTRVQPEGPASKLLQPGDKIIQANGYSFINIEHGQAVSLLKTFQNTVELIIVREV; partner TKNYKQTSV
Change	binding free energy change
L49R	0.84 kcal/mol
L75M	0.385 kcal/mol
R38L	0.0365 kcal/mol
Y61W	0.132 kcal/mol
G22W	0.684 kcal/mol
E11G	0.537 kcal/mol
V20W	-0.0123 kcal/mol
Q50I	0.0317 kcal/mol

Study 3
Target: RNA binding protein fox-1 homolog 2, RRM domain, GST-SBP tag (RBFOX2, Homo sapiens, UniProt O43251-10, residues 100-194)
Technique: RNA Bind-n-Seq
Molecule type: RNA
Matrix: in vitro
Tested at: 365 nM
Setting: natural RNA segment, single round, ends assumed
Relative to: no-protein control
Reading: higher = stronger binding
Target sequence (chain): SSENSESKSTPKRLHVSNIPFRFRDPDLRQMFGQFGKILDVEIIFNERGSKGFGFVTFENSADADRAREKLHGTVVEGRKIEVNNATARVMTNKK
Oligonucleotide	RBNS enrichment (R)
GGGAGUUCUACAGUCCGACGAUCCCCCAGCUCUCCCUACGCUGCUCGGGCCAUUGCCCAGCCAGAUGUGGUCACCUCAGUCCAGCUCUGGGGCCUCCAGGCCAUGUGGCUGUUCCCACGGCCCAGUCCUCGCUUGGAAUUCUCGGGUGCCAA	0.342
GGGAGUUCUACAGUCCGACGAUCUAGGGUAUAUGAAUAUUUUGCAAUAAUUUUAAUAAUUAUUAAGCUGUUUGAAGGAAAGAAUAUGGAUUUUUCAUGUCUUGAGGUUUUGUUCAUGCCCCCUUUGACUGAUCUGGAAUUCUCGGGUGCCAA	0.651
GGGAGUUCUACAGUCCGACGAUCCCAGAAUGUAUUAUAAUAUAUUGCUAUUAGGUUACUCUACUAACUGGAGCCAUGCCGACCUCUACAAACCUUGAACAGGUGCACAGCCCCCUCUCCGGAGCGCUUUGUAAUGGAAUUCUCGGGUGCCAA	0.658
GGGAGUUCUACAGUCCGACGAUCUGACAGUCAAGUGCCAUCUGGAUCUUAAGGAGCUUCCAUUUCUCCAGCUCAGUCCAUUGGAAUAGUAUUAGGUUUUGGUUUUUUGUUGUAUUUCCCCCUUUCCACUGGGCUGGAAUUCUCGGGUGCCAA	1.37
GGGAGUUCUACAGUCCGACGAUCUUAUGAAGAAUGGGUACUUCUGGAUUCCAGGAAAAAUUCUUAUAACUAAAAUCAAUAUGUUUUAAAAGUCACCAUAUAGCUUCUUACUAGUUAUCUUUUAAAGACUGUGGUGGAAUUCUCGGGUGCCAA	0.735
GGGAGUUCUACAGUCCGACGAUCAAAAAUACUUGAAAAUUGUAUGAUGUAUGAGAAGACAGAGCCCCCUAGUUUUGUAUUUUGUCCUGUGACUGCCAUGCGUUCCACCAGAAAGCCGCUCUAUUUUGGUCUCUUGGAAUUCUCGGGUGCCAA	1.13
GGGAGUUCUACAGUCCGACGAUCCCGGCGGGAGCCCCCGAAUGCUGCACCCAGCCACCCAGCAGAGCCCGUUCAUGGUUGAUCUCCACGAGCAGGUGCACCAGGGACCUGUCCCUCUGUCCUACACGGUCACCUGGAAUUCUCGGGUGCCAA	0.37
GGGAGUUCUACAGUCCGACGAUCAGAACGUAUAAUCAACUUUGUUGAAUAAUUUGUUCUAUUAAGGCUGUCUAAAGUAUGUGAUGUCUUCAUCAUAGUAUGAAGUGUUGAAAAUUAAUAACGAGCCUAGUUUAUGGAAUUCUCGGGUGCCAA	0.326

Single results of other studies
SMILES	target	test	conditions	scale	measurement	value
COc1cc2c(cc1OC)-c1[nH]nc(Nc3cccc(F)c3)c1C2	Tyrosine-protein kinase Fer (FER, Homo sapiens, UniProt P16591)	enzyme activity, inhibitor	0.5 µM	relative to: control	remaining activity	94%

Excerpt of the above (study 2):
Change	binding free energy change
G22W	0.684 kcal/mol
E11G	0.537 kcal/mol
